Experimental data collected from several papers.
Each line is one published result; not all experiments were run side by side. Numbers after ± are the reported error.
CSNK1E: Casein kinase I isoform epsilon (CSNK1E, Homo sapiens, UniProt P49674)
Sequence of UniProt P49674 (whole entry, looked up): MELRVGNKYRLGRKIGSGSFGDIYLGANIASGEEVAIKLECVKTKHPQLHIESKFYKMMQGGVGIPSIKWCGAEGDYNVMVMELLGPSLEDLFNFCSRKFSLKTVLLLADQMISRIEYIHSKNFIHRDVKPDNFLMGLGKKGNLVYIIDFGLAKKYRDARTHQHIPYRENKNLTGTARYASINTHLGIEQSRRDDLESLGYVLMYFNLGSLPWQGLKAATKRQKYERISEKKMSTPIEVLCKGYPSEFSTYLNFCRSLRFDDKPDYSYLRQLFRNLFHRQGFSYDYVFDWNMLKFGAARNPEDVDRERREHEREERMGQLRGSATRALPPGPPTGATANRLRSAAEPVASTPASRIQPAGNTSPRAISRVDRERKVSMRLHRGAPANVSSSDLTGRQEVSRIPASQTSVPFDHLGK
60 kDa heat shock protein, mitochondrial with HSP10: 60 kDa heat shock protein, mitochondrial, with HSP10 (Homo sapiens, UniProt P10809)
Sequence of UniProt P10809 (whole entry, looked up): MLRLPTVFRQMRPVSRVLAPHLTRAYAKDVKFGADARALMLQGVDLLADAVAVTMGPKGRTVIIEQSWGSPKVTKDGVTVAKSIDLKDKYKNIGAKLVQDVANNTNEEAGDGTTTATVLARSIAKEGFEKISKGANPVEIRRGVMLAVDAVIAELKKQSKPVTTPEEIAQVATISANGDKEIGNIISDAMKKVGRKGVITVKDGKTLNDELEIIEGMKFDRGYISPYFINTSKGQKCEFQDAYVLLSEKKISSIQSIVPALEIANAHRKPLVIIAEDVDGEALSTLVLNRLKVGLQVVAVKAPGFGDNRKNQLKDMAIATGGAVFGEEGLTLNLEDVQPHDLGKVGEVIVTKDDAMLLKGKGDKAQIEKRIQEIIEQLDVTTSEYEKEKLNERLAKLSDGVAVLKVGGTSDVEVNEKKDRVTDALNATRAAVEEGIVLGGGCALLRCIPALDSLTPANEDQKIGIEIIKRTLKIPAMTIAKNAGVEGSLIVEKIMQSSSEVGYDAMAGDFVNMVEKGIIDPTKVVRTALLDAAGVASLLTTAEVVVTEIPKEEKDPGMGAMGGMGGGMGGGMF
DRD2: D(2) dopamine receptor (DRD2, Homo sapiens, UniProt P14416)
Sequence of UniProt P14416 (whole entry, looked up): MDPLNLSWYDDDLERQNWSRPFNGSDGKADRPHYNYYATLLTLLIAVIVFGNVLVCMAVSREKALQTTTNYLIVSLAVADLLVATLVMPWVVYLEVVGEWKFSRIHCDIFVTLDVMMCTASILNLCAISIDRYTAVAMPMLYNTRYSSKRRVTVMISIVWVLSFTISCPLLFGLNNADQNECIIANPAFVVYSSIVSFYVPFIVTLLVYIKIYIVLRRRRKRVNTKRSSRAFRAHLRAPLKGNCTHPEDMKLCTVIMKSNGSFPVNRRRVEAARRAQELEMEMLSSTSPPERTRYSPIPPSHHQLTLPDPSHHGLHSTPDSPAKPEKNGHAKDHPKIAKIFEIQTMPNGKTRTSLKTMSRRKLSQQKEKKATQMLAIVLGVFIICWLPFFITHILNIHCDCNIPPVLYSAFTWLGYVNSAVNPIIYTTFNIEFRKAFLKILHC
TAF1L BD2: Transcription initiation factor TFIID subunit 1-like, BD2 (TAF1L, Homo sapiens, UniProt Q8IZX4)
DNA polymerase catalytic subunit: DNA polymerase catalytic subunit (Human cytomegalovirus, UniProt P08546)
Sequence of UniProt P08546 (whole entry, looked up): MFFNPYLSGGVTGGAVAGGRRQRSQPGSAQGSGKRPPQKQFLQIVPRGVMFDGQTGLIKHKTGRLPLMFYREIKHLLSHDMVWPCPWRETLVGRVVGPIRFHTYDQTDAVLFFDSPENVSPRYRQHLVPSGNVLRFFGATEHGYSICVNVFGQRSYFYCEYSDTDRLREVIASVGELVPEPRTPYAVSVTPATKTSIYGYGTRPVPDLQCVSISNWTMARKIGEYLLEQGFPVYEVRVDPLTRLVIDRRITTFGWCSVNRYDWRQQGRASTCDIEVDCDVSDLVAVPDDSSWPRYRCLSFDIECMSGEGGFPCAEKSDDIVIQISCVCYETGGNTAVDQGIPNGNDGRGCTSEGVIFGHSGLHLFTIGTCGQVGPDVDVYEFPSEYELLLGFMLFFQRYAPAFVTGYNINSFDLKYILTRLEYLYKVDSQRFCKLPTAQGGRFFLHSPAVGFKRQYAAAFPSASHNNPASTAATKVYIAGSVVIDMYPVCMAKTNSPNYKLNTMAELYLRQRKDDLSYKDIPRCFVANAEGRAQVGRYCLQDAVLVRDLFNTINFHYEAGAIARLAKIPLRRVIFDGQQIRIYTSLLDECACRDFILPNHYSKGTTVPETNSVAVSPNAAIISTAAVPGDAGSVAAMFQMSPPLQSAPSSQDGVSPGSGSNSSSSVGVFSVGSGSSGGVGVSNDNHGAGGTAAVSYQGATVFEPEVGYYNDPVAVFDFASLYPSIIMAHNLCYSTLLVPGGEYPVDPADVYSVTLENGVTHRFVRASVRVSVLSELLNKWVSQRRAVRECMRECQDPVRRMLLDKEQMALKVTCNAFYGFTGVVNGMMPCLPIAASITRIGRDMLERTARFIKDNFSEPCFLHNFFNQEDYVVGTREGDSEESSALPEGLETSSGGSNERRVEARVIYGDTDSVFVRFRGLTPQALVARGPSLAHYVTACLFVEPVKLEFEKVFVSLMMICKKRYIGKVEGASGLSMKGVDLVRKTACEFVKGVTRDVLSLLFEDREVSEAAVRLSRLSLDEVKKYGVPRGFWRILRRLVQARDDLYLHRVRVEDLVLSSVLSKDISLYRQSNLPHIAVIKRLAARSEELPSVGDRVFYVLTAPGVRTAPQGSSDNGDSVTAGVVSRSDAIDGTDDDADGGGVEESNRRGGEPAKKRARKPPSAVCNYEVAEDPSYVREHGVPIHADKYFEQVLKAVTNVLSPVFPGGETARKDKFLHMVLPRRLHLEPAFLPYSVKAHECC
Lysine--tRNA ligase, cytoplasmic: Lysine--tRNA ligase, cytoplasmic (Arabidopsis thaliana, UniProt Q9ZPI1)
Sequence of UniProt Q9ZPI1 (whole entry, looked up): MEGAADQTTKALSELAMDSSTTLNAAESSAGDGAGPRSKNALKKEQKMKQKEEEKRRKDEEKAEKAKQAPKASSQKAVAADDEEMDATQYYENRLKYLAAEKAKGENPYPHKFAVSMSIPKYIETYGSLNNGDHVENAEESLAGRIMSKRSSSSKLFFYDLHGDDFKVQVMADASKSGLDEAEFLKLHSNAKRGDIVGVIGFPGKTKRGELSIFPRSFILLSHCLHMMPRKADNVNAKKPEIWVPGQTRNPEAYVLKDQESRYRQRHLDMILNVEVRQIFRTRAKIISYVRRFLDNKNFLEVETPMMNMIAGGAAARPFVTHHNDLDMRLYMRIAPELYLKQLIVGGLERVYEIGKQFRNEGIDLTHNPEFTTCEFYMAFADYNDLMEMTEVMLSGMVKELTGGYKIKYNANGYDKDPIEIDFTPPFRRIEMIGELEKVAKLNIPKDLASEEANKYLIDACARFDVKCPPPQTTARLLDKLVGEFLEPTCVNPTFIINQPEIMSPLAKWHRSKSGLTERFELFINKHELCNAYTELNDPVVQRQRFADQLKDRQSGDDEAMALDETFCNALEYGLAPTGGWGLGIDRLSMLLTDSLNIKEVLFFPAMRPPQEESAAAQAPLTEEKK
CDK6 with cyclin D1: Cyclin-dependent kinase 6, with cyclin D1 (CDK6, Homo sapiens, UniProt Q00534)
Sequence of UniProt Q00534 (whole entry, looked up): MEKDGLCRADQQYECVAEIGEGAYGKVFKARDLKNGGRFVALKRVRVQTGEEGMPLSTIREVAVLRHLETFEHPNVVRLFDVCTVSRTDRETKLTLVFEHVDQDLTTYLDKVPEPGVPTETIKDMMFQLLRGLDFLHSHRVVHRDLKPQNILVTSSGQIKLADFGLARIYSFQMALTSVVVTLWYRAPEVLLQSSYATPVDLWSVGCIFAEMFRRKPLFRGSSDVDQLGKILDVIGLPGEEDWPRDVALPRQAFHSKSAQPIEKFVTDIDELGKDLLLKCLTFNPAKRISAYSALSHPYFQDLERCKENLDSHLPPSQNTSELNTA
KRAS C118S/G12V with SOS1: GTPase KRas, with SOS1 (KRAS, Homo sapiens, UniProt P01116, C118S/G12V)
MCL1: Induced myeloid leukemia cell differentiation protein Mcl-1 (MCL1, Homo sapiens, UniProt Q07820)
Sequence of UniProt Q07820 (whole entry, looked up): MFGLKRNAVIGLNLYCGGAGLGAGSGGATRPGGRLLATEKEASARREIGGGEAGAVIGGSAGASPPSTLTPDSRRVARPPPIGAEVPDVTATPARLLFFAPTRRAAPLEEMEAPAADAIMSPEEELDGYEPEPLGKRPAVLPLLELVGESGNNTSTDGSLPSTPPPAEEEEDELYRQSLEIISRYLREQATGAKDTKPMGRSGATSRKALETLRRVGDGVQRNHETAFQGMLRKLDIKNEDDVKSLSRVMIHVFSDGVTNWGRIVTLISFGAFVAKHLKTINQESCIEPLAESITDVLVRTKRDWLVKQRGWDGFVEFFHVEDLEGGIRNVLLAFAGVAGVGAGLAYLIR
SIRT5: NAD-dependent protein deacylase sirtuin-5, mitochondrial (SIRT5, Homo sapiens, UniProt Q9NXA8)
Sequence of UniProt Q9NXA8 (whole entry, looked up): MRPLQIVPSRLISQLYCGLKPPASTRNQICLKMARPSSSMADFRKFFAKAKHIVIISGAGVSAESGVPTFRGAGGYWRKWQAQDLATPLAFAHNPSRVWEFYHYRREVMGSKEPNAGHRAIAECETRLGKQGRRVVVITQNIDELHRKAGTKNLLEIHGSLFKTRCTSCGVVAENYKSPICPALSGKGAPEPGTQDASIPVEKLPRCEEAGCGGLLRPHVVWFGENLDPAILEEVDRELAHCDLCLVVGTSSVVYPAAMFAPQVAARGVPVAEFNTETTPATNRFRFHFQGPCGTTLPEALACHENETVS
PTGS2: Prostaglandin G/H synthase 2 (PTGS2, Homo sapiens, UniProt P35354)
Sequence of UniProt P35354 (whole entry, looked up): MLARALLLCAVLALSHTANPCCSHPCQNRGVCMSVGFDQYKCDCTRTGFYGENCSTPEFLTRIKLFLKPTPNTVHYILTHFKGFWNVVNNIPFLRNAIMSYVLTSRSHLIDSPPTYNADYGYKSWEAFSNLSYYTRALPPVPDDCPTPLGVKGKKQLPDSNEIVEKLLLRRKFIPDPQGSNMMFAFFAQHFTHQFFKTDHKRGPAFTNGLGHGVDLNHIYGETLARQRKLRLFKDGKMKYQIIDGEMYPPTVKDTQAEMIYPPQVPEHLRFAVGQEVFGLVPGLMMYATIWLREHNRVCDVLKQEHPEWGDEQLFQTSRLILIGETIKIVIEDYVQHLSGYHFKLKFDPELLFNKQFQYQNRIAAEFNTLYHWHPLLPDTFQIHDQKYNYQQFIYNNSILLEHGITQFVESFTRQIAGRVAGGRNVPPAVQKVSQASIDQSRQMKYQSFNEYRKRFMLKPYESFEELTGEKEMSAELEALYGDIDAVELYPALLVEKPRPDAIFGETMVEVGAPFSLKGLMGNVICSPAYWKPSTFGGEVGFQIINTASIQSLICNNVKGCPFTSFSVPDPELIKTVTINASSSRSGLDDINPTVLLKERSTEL

Compound	target	assay	test system	setting	IC50 [nM]
CCc1cc2c(cc1N1CCC(N3CCOCC3)CC1)C(C)(C)c1[nH]c3cc(C#N)ccc3c1C2=O	BDNF/NT-3 growth factors receptor (NTRK2, Homo sapiens, UniProt Q16620)	cell-based	–	–	6180
Fc1ccc(-c2c(-c3ccncc3)ncn2-c2ccc(-c3ccccc3)cc2)cc1	CSNK1E	inhibitor	–	–	1970 ± 213
N=C(N)Nc1cccc(C(=O)NCC(=O)NC[C@H](NC(=O)c2c(Cl)cc(-c3ccc4cn[nH]c4c3)cc2Cl)C(=O)O)c1	Integrin alpha-V/beta-5 (Homo sapiens, UniProt P06756+P18084)	cell adhesion, inhibitor	SW480	added: vitronectin 1 µg/mL	63100
COc1cc(/C=N/n2c(C)nc3ccc(Br)cc3c2=O)ccc1OCc1ccc(Cl)cc1	Xanthine dehydrogenase/oxidase (XDH, Bos taurus, UniProt P80457)	enzyme activity, inhibitor	–	–	32200 ± 2120
Cc1nn(C)c2ncc(C(=O)NCc3ccccc3)c(Cl)c12	60 kDa heat shock protein, mitochondrial with HSP10	HSP60/10-mediated MDH refolding	–	30 min, preincubation before ATP, added: denatured malate dehydrogenase	11000
Cc1[nH]c(C)c(S(=O)(=O)Nc2ccc(C(F)(F)F)c(Cl)c2Cl)c1C(=O)N1CCC(F)(F)C1	DRD2	–	–	–	> 100000
Cc1cc2c(cc1N1C(=O)c3cccc4cccc(c34)C1=O)n(C)c(=O)n2C	TAF1L BD2	HTRF	–	GST-tagged protein	374
CCCCCCCCCOC(C)=O	uncharacterized protein (Spodoptera exigua, UniProt F1CEY0)	binding, fluorescence competitive binding	–	added: 1-NPN 2.0 µM	11700
CC[C@@H]1[C@H](F)C(=O)N[C@@H]1COc1nccc2cc(C(N)=O)c(OC)cc12	Mitogen-activated protein kinase 7 (MAPK7, Homo sapiens, UniProt Q13164)	ATP probe binding, KiNativ profiling, measured: Erk5 Lys2 probe site	THP-1 cell lysate	–	> 5000
Cc1cc(O)cc(Nc2nnc(-c3n[nH]c4ccc(C)cc34)s2)c1	α-glucosidase	enzyme activity, inhibitor	–	pH 6.8, added: p-nitrophenyl-α-D-glucopyranoside	6350 ± 1560
CN(C)C(=O)CN1CCN(c2cnc3c(cc(C(=O)NCc4ccc(Cl)cc4)c(=O)n3CC(=O)N3CC(C)(F)C3)n2)C1=O	DNA polymerase catalytic subunit	enzyme activity, inhibitor	–	at least duplicate	330
Cc1[nH]c(C)c(S(=O)(=O)Nc2ccc(C(F)(F)F)c(Cl)c2)c1C(=O)N1CC[C@H](F)C1	DRD2	–	–	–	> 100000
Nc1nsc(C(=O)NCC23CCC(CC2)C3)c1Cl	Lysine--tRNA ligase, cytoplasmic	enzyme activity, inhibitor	–	–	3980
CCCN(CCC)C(=O)c1c(C)[nH]c(C)c1S(=O)(=O)Nc1ccc(C(F)(F)F)c(Cl)c1	DRD2	–	–	–	> 100000
CC#CC(=O)N[C@H]1CCCN(c2c(F)cc(C(N)=O)c3[nH]c(C)c(C)c23)C1	Tyrosine-protein kinase JAK1 (JAK1, Homo sapiens, UniProt P23458)	–	–	–	> 5000
O=C1NC(=O)C2(N1)c1ccccc1-c1ccccc12	GABA-A receptor alpha-1/beta-3, with gamma-2 subunit (GABRA1/GABRB3, Homo sapiens, UniProt P14867+P28472)	–	–	α1β3γ2 receptor	45000
Cc1[nH]c(C)c(S(=O)(=O)Nc2ccc(Cl)c(Cl)c2)c1C(=O)N1CCC(F)(F)C1	DRD2	–	–	–	> 100000
CN(C)C(=O)c1cc2cnc(Nc3ccc4c(=O)cc(N5CCOCC5)oc4c3)nc2n1C1CCCC1	CDK6 with cyclin D1	inhibitor, HotSpot radiometric kinase	–	added: 10 µM ATP, cyclin D1	12.9
Fc1ccc(-c2nc(-c3c(F)cccc3Cl)[nH]c2-c2ccncc2)cc1	CSNK1E	inhibitor	–	–	61.8 ± 16.7
C[C@H]1CN(C)CCN1c1nccc(-c2noc([C@@]3(C)CCCc4sc(N)c(C#N)c43)n2)n1	KRAS C118S/G12V with SOS1	KRAS G12V-SOS1 interaction, inhibitor, AlphaScreen	–	geometric mean	26
CC(C)C[C@H](NC(=O)[C@H](CCc1ccccc1)NC(=O)CN1CCOCC1)C(=O)N[C@@H](Cc1ccccc1)C(=O)N[C@@H](CC(C)C)C(=O)[C@@]1(C)CO1	Proteasome subunit beta type-1/Psmb5, β5 subunit (Mus musculus, UniProt O09061+O55234)	proteasome subunit activity	Ba/F3 BCR-ABL1 T315I	1 h pulse	5.71 ± 1.14
COc1ccccc1-c1nccc(COc2ccccc2C[C@@H](Oc2cccc3c2c(-c2ccc(OCCN4CCN(C)CC4)c(Cl)c2C)c(-c2ccc(F)cc2)n3C)C(=O)O)n1	MCL1	binding, quench	–	–	2.3
Cc1ccnc(NC(=S)N2CCN(c3cccc(C(F)(F)F)c3)CC2)c1	sfp (Bacillus subtilis, UniProt P39135)	enzyme activity, inhibitor, qHTS	–	–	1900
Nc1nsc(C(=O)NCC2CCCC2)c1Cl	Lysine--tRNA ligase, cytoplasmic	enzyme activity, inhibitor	–	–	1580
O=C(CCCCC[C@H](NS(=O)(=O)c1cccc(F)c1)C(=O)N[C@@H](Cc1c[nH]c2ccccc12)C(=O)NC1CCC1)NCCc1nnn[nH]1	SIRT5	enzyme activity, inhibitor	–	–	21200 ± 2200
O=C1NCCc2[nH]cc(S(=O)(=O)Nc3ccc(C(F)(F)F)c(Cl)c3)c21	DRD2	–	–	–	> 100000
C[C@]1(c2nc(-c3cccc(N4CCNCC4)c3)no2)CCCc2sc(N)c(C#N)c21	KRAS C118S/G12V with SOS1	KRAS G12V-SOS1 interaction, inhibitor, AlphaScreen	–	geometric mean	319
Cc1ccc2[nH]nc(-c3nnc(Nc4ccc(Br)cc4)s3)c2c1	α-glucosidase	enzyme activity, inhibitor	–	pH 6.8, added: p-nitrophenyl-α-D-glucopyranoside	11100 ± 1430

Compound	target	assay	test system	setting	IC50 [nM]
Cc1cc(Nc2ncc(Cl)c(Nc3ccccc3S(=O)(=O)C(C)C)n2)c(OC(C)C)cc1C1CCNCC1	NT-3 growth factor receptor (NTRK3, Homo sapiens, UniProt Q16288)	enzyme activity, inhibitor	–	added: 1 mM ATP	> 1100
N#CSCCNC(=O)c1ccc(Oc2ccc(Cl)cc2NS(=O)(=O)c2ccc(Cl)c(C(F)(F)F)c2)cc1	C-C chemokine receptor type 5 (CCR5, Homo sapiens, UniProt P51681)	antagonist	U2OS membranes	25 °C, added: 20 nM CCL3	5570
COc1ccccc1-c1nc(-c2ccc(F)cc2)c(-c2ccncc2)[nH]1	CSNK1E	inhibitor	–	–	268 ± 10.9
Cc1[nH]c(C)c(S(=O)(=O)Nc2c(Cl)ccc(Cl)c2Cl)c1C(=O)N1CCC(F)(F)C1	DRD2	–	–	–	> 100000
FC(F)(F)c1cccc(-c2nnc(S)o2)c1	P2X purinoceptor 7 (P2RX7, Homo sapiens, UniProt Q99572)	calcium mobilization, antagonist	MCF7 transfected with P2RX7	added: 100 µM BzATP	1500 ± 163
Nc1nsc(C(=O)NCc2ccc(F)cc2F)c1Cl	Lysine--tRNA ligase, cytoplasmic	enzyme activity, inhibitor	–	–	1000
C=CC(=O)Nc1cc(Nc2nccc(-c3cn(C)c4ccccc34)n2)c(OC)cc1N(C)CCN(C)C	Multidrug and toxin extrusion protein 2 (SLC47A2, Homo sapiens, UniProt Q86VL8)	inhibitor	–	–	23000
Cc1ccc(-c2cc(Br)cc(Br)c2)n1-c1cccc(F)c1	PTGS2	enzyme activity, inhibitor, fluorogenic resorufin	–	–	10100 ± 200
Cc1nc2c(F)cc(-c3ccnc(Nc4ccc5c(=O)cc(N6CCOCC6)oc5c4)n3)cc2n1C(C)C	CDK6 with cyclin D1	inhibitor, HotSpot radiometric kinase	–	added: 10 µM ATP, cyclin D1	13.1
COc1ccccc1-c1nccc(COc2ccccc2C[C@@H](Oc2nccc3nc(-c4ccc(F)cc4)c(-c4ccc(OCCN5CCN(C)CC5)c(Cl)c4C)n23)C(=O)O)n1	MCL1	binding, quench	–	–	8.2
COc1nc(NCc2cn(-c3ccc(C(=O)Nc4ccc(C(F)(F)F)cc4)cc3)nn2)nc(OC)n1	Stromelysin-2 (Homo sapiens, UniProt P09238)	–	–	–	205 ± 4
CC(C(=O)O)c1ccc(/C=C2\CCCCC2=O)cc1 (stereo not shown)	PTGS2	inhibitor	–	–	2880
Cc1c(N2CCOCC2)oc2c(-c3ccc(Nc4ncc5cc(C(=O)N(C)C)n(C6CCCC6)c5n4)cc3F)cccc2c1=O	CDK6 with cyclin D1	inhibitor, HotSpot radiometric kinase	–	added: 10 µM ATP, cyclin D1	6040
Cn1cnc(Cn2ccc3ccc(CNCc4[nH]c5ccccc5c4[C@H]4NC(=O)c5ccc(O)cc54)cc32)c1	GTPase KRas, GppNHp; with RAF1 RBD (KRAS, Homo sapiens, UniProt P01116, A146T)	HTRF	–	–	5900 ± 1900
COc1cnc2c(cc(C(=O)NCc3ccc(Cl)cc3)c(=O)n2CC(=O)N2CC(C)(F)C2)n1	DNA polymerase catalytic subunit	enzyme activity, inhibitor	–	at least duplicate	950
Cc1cc2c(cc1N1C(=O)c3cccc4cc(Br)cc(c34)C1=O)n(C)c(=O)n2C	TAF1L BD2	HTRF	–	GST-tagged protein	96.8
Cc1[nH]c(C)c(S(=O)(=O)Nc2ccc(C(F)(F)F)c(Cl)c2)c1C(=O)N(C)Cc1ccccc1	DRD2	–	–	–	> 100000
Nc1nsc(C(=O)NC[C@@H]2CCCC[C@@H]2Cl)c1Cl	Lysine--tRNA ligase, cytoplasmic	enzyme activity, inhibitor	–	–	2000
Fc1ccc(-c2nc(-c3c(F)cccc3I)[nH]c2-c2ccncc2)cc1	CSNK1E	inhibitor	–	–	63.5 ± 11.4
CN1CCN(c2ccc(Nc3ncc4cc(C#N)c(=O)n(C5CCCC5)c4n3)cc2)CC1	Serine/threonine-protein kinase 10 (STK10, Homo sapiens, UniProt O94804)	–	–	–	107
Cc1cc(Nc2ccc3c(c2)CCCC3)n2ccnc2n1	Dihydroorotate dehydrogenase (quinone), mitochondrial (DHODH, Homo sapiens, UniProt Q02127)	enzyme activity, inhibitor	–	–	> 100000
C[C@H]1CN(C(=O)CC#N)[C@]12CCN(c1ncnc3[nH]ccc13)C2	Organic anion transporter 3 (SLC22A8, Homo sapiens, UniProt Q8TCC7)	transport, inhibitor	–	–	6380
C[C@H]1CN(C)CCN1c1cccc(-c2noc([C@@]3(C)CCCc4sc(N)c(C#N)c43)n2)n1	GTPase KRas, with SOS1 (KRAS, Homo sapiens, UniProt P01116)	KRAS wild type-SOS1 interaction, inhibitor, AlphaScreen	–	geometric mean	104
Cc1ccc(NS(=O)(=O)c2c(C)[nH]c(C)c2C(=O)N2CCC(F)(F)C2)cn1	DRD2	–	–	–	> 100000
Cn1ncc2c(Cl)c(C(=O)NCc3ccccc3)cnc21	60 kDa heat shock protein, mitochondrial with HSP10	HSP60/10-mediated MDH refolding	–	30 min, preincubation before ATP, added: denatured malate dehydrogenase	17000
O=C(CCC(=O)N[C@@H](CCCCNC(=S)NCCc1cc(O)no1)C(=O)N[C@@H](Cc1c[nH]c2ccccc12)C(=O)NC1CCC1)NCCOCCOCCCCCCCl	SIRT5	enzyme activity, inhibitor	–	–	37000 ± 1000
CSc1ccccc1C(=O)NCCn1cc(C(=O)NCc2cccc(C)n2)c(=O)c2cc3c(cc21)OC(F)(F)O3	Cytochrome P450 2C19 (CYP2C19, Homo sapiens, UniProt P33261)	enzyme activity, inhibitor	human liver microsomes	20 min, 30 min NADPH preincubation, added: mephenytoin 50 µM	> 100000

Repeated from above:
Compound	target	assay	test system	setting	IC50 [nM]
CC#CC(=O)N[C@H]1CCCN(c2c(F)cc(C(N)=O)c3[nH]c(C)c(C)c23)C1	Tyrosine-protein kinase JAK1 (JAK1, Homo sapiens, UniProt P23458)	–	–	–	> 5000
Fc1ccc(-c2nc(-c3c(F)cccc3I)[nH]c2-c2ccncc2)cc1	CSNK1E	inhibitor	–	–	63.5 ± 11.4
CSc1ccccc1C(=O)NCCn1cc(C(=O)NCc2cccc(C)n2)c(=O)c2cc3c(cc21)OC(F)(F)O3	Cytochrome P450 2C19 (CYP2C19, Homo sapiens, UniProt P33261)	enzyme activity, inhibitor	human liver microsomes	20 min, 30 min NADPH preincubation, added: mephenytoin 50 µM	> 100000
C[C@H]1CN(C(=O)CC#N)[C@]12CCN(c1ncnc3[nH]ccc13)C2	Organic anion transporter 3 (SLC22A8, Homo sapiens, UniProt Q8TCC7)	transport, inhibitor	–	–	6380
CC(C(=O)O)c1ccc(/C=C2\CCCCC2=O)cc1 (stereo not shown)	PTGS2	inhibitor	–	–	2880
Nc1nsc(C(=O)NCc2ccc(F)cc2F)c1Cl	Lysine--tRNA ligase, cytoplasmic	enzyme activity, inhibitor	–	–	1000
Cc1c(N2CCOCC2)oc2c(-c3ccc(Nc4ncc5cc(C(=O)N(C)C)n(C6CCCC6)c5n4)cc3F)cccc2c1=O	CDK6 with cyclin D1	inhibitor, HotSpot radiometric kinase	–	added: 10 µM ATP, cyclin D1	6040
